Published values gathered from unrelated publications.
Each numbered part is a random draw from the data of one study; scales do not carry over between parts.
UniProt P10721, sequence (whole entry, unmodified, looked up): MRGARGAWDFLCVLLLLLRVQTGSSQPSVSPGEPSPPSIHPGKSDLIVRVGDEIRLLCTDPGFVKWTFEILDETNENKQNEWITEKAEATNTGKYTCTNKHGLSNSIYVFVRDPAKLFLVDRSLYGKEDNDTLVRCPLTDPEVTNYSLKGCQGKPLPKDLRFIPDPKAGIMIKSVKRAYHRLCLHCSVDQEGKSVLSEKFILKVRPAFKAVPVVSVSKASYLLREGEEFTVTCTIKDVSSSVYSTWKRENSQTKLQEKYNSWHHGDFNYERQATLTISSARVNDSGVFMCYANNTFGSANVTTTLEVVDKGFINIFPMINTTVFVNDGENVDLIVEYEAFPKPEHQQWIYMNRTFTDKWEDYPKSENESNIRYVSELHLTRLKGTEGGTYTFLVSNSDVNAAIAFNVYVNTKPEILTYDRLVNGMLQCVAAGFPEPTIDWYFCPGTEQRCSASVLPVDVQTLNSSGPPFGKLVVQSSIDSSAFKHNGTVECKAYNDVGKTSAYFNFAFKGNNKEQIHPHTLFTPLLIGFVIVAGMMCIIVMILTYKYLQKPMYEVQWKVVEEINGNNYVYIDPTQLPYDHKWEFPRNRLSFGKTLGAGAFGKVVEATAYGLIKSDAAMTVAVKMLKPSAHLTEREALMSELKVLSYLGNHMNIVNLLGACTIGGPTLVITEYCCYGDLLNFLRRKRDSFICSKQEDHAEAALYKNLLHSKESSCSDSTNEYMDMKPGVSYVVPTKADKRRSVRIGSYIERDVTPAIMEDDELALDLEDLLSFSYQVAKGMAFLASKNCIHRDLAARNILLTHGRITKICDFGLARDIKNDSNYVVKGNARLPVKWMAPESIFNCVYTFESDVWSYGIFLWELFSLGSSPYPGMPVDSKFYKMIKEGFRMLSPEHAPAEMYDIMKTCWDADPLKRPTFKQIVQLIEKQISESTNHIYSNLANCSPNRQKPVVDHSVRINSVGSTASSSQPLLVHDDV
UniProt P54756, sequence (whole entry, looked up): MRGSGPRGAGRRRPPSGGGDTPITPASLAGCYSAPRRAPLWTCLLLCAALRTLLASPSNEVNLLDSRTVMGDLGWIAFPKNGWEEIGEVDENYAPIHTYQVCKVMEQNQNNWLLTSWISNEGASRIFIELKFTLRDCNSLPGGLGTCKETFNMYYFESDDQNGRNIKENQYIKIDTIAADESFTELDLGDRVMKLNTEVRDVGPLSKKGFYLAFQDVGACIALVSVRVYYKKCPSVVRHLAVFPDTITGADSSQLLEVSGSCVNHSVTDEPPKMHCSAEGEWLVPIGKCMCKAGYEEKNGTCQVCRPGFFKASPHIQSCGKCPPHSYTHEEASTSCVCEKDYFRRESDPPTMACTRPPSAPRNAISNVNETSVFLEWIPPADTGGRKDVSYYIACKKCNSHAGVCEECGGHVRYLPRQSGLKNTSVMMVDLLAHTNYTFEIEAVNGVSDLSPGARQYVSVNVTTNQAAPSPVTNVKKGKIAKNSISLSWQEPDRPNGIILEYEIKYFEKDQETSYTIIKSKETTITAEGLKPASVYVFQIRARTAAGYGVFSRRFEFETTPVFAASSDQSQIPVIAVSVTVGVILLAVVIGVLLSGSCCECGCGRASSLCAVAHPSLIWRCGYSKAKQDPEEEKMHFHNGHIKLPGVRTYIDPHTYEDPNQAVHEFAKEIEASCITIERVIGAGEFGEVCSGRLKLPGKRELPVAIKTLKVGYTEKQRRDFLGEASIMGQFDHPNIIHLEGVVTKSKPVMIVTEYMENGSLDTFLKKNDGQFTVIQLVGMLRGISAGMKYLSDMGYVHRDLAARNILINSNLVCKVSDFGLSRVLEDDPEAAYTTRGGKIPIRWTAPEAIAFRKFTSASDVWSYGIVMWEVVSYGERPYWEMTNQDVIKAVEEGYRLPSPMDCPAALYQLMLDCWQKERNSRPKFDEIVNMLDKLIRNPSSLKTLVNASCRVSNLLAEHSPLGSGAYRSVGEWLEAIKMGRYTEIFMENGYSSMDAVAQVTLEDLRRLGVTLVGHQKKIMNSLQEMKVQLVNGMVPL
UniProt Q9H3Y6, sequence (whole entry, looked up): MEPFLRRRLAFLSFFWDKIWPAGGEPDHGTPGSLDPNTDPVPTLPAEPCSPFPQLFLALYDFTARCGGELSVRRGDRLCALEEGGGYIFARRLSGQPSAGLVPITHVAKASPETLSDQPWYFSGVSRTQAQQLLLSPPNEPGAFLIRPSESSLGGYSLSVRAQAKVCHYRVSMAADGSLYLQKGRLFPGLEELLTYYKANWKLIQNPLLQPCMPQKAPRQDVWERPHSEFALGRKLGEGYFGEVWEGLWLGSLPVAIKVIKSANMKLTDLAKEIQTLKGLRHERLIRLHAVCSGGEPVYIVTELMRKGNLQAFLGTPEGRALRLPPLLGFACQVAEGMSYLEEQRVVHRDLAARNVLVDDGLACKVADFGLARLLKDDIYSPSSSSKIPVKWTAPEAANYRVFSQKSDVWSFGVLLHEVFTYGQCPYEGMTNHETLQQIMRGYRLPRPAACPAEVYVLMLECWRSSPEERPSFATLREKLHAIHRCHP
UniProt Q86Z02, sequence (whole entry, looked up): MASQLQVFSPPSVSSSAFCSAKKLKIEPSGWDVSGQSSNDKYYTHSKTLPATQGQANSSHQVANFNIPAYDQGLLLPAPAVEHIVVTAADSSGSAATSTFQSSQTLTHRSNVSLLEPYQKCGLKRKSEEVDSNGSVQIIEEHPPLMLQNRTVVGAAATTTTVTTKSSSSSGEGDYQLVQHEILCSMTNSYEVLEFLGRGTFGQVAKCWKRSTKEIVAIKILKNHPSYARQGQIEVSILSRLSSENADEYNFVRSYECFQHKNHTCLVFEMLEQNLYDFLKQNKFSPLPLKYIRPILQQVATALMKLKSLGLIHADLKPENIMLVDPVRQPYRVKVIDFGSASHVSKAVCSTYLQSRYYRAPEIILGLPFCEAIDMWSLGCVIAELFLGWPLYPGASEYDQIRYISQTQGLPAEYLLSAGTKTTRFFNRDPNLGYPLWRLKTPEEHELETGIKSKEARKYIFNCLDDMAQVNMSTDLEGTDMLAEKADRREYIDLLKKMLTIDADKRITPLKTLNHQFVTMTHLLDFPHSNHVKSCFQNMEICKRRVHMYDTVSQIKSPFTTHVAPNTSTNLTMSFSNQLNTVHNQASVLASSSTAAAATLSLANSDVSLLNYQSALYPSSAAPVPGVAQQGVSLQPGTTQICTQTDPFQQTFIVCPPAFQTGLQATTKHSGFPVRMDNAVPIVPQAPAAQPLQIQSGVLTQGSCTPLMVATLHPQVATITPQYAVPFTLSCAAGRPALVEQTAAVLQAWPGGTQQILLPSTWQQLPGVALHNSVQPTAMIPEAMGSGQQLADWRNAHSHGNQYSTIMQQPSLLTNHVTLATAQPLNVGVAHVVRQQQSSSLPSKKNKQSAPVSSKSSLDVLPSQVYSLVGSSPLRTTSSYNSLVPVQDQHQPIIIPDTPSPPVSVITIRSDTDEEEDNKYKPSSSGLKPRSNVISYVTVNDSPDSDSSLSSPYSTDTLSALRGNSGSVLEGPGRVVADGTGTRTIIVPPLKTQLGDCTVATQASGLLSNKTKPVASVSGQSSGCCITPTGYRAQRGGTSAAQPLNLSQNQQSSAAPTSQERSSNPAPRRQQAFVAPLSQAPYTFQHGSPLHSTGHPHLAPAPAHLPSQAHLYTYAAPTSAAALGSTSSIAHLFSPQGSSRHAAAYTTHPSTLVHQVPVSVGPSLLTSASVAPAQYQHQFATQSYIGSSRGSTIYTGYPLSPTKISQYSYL
UniProt Q13470, sequence (whole entry, looked up): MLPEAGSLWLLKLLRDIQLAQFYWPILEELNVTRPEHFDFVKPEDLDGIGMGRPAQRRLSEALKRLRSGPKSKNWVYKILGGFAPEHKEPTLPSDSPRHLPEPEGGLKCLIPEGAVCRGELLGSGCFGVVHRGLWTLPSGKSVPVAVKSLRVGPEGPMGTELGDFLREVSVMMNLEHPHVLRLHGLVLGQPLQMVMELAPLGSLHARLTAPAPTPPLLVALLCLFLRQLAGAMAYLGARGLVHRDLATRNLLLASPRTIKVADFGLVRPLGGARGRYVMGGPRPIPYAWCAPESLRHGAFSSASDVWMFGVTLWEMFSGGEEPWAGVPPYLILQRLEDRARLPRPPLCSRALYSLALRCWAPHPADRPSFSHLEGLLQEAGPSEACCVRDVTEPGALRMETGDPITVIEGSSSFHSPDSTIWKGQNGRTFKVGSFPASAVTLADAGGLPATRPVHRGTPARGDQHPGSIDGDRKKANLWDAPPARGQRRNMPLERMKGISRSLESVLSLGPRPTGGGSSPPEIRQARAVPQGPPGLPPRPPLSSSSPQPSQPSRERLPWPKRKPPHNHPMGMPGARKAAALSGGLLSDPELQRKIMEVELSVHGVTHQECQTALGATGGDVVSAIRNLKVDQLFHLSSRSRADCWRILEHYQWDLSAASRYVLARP

Block 1 — effect on: enzyme activity; action: inhibitor; tested at: 0.5 µM; baseline: control
Target: Dual specificity protein kinase CLK2 (CLK2, Homo sapiens, UniProt P49760)
UniProt P49760, sequence (whole entry, looked up): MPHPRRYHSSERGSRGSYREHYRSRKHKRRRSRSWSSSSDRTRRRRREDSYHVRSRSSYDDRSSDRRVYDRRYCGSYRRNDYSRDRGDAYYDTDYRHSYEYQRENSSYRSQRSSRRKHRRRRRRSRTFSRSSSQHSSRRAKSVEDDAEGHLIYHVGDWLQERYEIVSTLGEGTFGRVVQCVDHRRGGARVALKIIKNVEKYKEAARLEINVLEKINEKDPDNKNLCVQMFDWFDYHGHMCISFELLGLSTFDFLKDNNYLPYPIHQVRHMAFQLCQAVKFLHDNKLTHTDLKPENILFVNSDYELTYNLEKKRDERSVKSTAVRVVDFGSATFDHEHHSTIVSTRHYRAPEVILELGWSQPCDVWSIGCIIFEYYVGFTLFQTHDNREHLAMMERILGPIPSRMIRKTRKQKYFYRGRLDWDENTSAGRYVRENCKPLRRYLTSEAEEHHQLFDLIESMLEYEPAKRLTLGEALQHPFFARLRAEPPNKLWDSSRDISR
Compound	remaining activity [%]
O=c1cc(-c2cccc3c2Sc2ccccc2S3)oc(N2CCOCC2)c1	84.7
O=C(NC(NC(=S)Nc1ccc(F)c([N+](=O)[O-])c1)C(Cl)(Cl)Cl)C(c1ccccc1)c1ccccc1 (stereo not drawn)	93.5
CCN(CC)CCNC(=O)c1c(C)[nH]c(/C=C2\C(=O)Nc3ccc(Cl)cc32)c1C	15.8
COc1cc2ncnc(Nc3cccc(Cl)c3)c2cc1OC	89.6
Nc1cccc(-c2cc3c(Oc4cccc(O)c4)ncnc3[nH]2)c1	98.8
CCOc1nc(NC(=O)Cc2cc(OC)ccc2OC)cc(N)c1C#N	96.1
C[C@@H]1CCN(C(=O)CC#N)C[C@@H]1N(C)c1ncnc2[nH]ccc12	85.8
CCN(CC)CCNC(=O)c1c(C)[nH]c(/C=C2\C(=O)Nc3ccc(F)cc32)c1C	13.6

Block 2 — technique: competition protein-binding microarray; molecule type: double-stranded DNA, one strand shown; sample: in vitro; tested at: 2 µM; together with: Cbf1 competitor, 0.05 µM; direction: higher = stronger binding; constant ends, left off below: … GTCTTGATTCGCTTGACGCTGCTG
Target: Phosphate system positive regulatory protein PHO4, full length, GST-tagged (PHO4, Saccharomyces cerevisiae, UniProt P07270, residues 1-312)
Setting: whole 60-bp probe, lowest competitor level
Target sequence (chain): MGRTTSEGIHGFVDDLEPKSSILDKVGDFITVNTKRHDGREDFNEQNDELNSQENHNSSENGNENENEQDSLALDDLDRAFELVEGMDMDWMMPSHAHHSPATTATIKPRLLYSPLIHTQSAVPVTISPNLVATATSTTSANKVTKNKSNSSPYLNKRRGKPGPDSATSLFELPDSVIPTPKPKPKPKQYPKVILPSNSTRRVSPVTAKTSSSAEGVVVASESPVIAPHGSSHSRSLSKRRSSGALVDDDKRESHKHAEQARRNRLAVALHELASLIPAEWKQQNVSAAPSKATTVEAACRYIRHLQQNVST
Sequence	fluorescence intensity [a.u.]
CTAACGAAGGTTTGCAAAGTGGGTGACAAGCCAAGT	3520
GTCATAGACAGAACACACGTGGTGAGGAAAAAGGAC	18200
GCGGTGTCAAACGGTCTGGTGTGCCATCTAGAAGTT	4240
CGTCCTAGCGATTGAAGCGTGGGTGCCATGAGGAAG	8700
CTTTCCCGATCTTGAGACGTGGGTGTAGCACATTTG	6590
CGTCCTAGCGATTGATAGGTGGGTGCCATGAGGAAG	6620
CTTCTGTAAATTTGTTTTGTGGGTGGACGCGCCCCG	4520
AACTTGTGCTTGAATCAAATGGTTACAGTGGACAGT	4200

Block 3 — effect on: cell-free assay; technique: competition with immobilised ligand; tested at: 1 µM
SMILES: CN(c1ccnc(CNc2nc(Nc3ccc4c(c3)CC(=O)N4)ncc2C(F)(F)F)n1)S(C)(=O)=O
target	remaining binding [%]
Epidermal growth factor receptor (EGFR, Homo sapiens, UniProt P00533, L861Q)	70
Tyrosine-protein kinase ABL1, non-phosphorylated (ABL1, Homo sapiens, UniProt P00519, H396P)	26
Ephrin type-A receptor 5 (EPHA5, Homo sapiens, UniProt P54756)	82
Mast/stem cell growth factor receptor Kit (KIT, Homo sapiens, UniProt P10721, D816V)	28
Ribosomal protein S6 kinase alpha-2, C-terminal kinase domain (RPS6KA2, Homo sapiens, UniProt Q15349)	95
Homeodomain-interacting protein kinase 1 (HIPK1, Homo sapiens, UniProt Q86Z02)	45
Tyrosine-protein kinase Srms (SRMS, Homo sapiens, UniProt Q9H3Y6)	62
Mast/stem cell growth factor receptor Kit (KIT, Homo sapiens, UniProt P10721, A829P)	46
Tyrosine-protein kinase ABL1, non-phosphorylated (ABL1, Homo sapiens, UniProt P00519)	77
Mast/stem cell growth factor receptor Kit (KIT, Homo sapiens, UniProt P10721, T670I/V559D)	100
Non-receptor tyrosine-protein kinase TNK1 (TNK1, Homo sapiens, UniProt Q13470)	65
Tyrosine-protein kinase ABL1, phosphorylated (ABL1, Homo sapiens, UniProt P00519, Q252H)	49
Cyclin-dependent kinase-like 1 (CDKL1, Homo sapiens, UniProt Q00532)	61

Further values, each from its own experiment
SMILES	sample	endpoint	value
CCC[C@H]1NC(=O)CSC[C@@H](C(=O)OCC)N(C)C(=O)[C@H](CC(C)C)NC(=O)[C@@H](C)N(C)C(=O)[C@@H](CC(C)C)NC(=O)[C@H](C)N(C)C(=O)[C@H]2CCCN2C(=O)[C@@H](CC(C)C)NC(=O)CN(C)C1=O	hydrocarbon/water	logD	-0.132
